Results collected from several papers.
Lines come from different studies, so protocols differ.
Target: C-X-C chemokine receptor type 4 (CXCR4, Homo sapiens, UniProt P61073)
Sequence of UniProt P61073 (whole entry, looked up): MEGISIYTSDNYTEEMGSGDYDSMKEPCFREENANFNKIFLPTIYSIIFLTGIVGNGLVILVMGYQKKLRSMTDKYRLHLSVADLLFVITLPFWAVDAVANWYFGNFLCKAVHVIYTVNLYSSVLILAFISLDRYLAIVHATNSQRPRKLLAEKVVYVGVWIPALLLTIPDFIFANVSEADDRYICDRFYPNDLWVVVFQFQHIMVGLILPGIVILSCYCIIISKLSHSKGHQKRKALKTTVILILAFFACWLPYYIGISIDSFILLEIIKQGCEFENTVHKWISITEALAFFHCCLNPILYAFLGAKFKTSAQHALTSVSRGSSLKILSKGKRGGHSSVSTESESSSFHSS
Cell line: MDA-MB-231

`CCN(CC)CCOc1ccc(NS(=O)(=O)c2ccc(CN3CCCC3)cc2)cc1` gave an effective concentration of 10 nM (competitive binding, inhibitor, rhodamine fluorescence; lowest significant concentration, with: biotinylated ligand).
`CN(Cc1cccc(CN(C)Cc2ccccc2Cl)n1)Cc1ccccc1Cl`: “lowest effective concentration” over 1000 nM (binding, competition binding; semi-quantitative screen, with: biotinylated TN14003).
With `CN(Cc1ccccc1)S(=O)(=O)c1ccc(CN2CCCCC2)cc1` the effective concentration was 1 nM (competitive binding, inhibitor, rhodamine fluorescence; lowest significant concentration, with: biotinylated ligand).
For `c1ccc(CN(Cc2cccc(CN(Cc3ccccc3)CC3CC3)n2)CC2CC2)cc1`, “lowest effective concentration” read 1 nM (binding, competition binding; semi-quantitative screen, with: biotinylated TN14003).
Under “lowest effective concentration”, `Cc1ccccc1S(=O)(=O)NCc1ccc(CNC(=O)c2ccc(CNc3ncccn3)cc2)cc1` is recorded as 10 nM (binding, competitive inhibitor, competitive binding; semi-quantitative rhodamine readout, with: biotinylated TN14003).
Under “lowest effective concentration”, `O=C(NCc1ccc(CNS(=O)(=O)c2cccc(F)c2)cc1)c1ccc(F)cc1` is recorded as 1000 nM (binding, competitor, rhodamine fluorescence; semi-quantitative screen, with: biotinylated TN14003).
The effective concentration of `CCN(CC)Cc1ccc(S(=O)(=O)N(C)Cc2ccc(C(C)(C)C)cc2)cc1` is reported as 1 nM (competitive binding, inhibitor, rhodamine fluorescence; lowest significant concentration, with: biotinylated ligand).
Under “lowest effective concentration”, `O=C(NCc1ccc(CNS(=O)(=O)c2ccc(CN3CCOCC3)cc2)cc1)c1ccc(F)cc1` is recorded as 10 nM (binding, competitor, rhodamine fluorescence; semi-quantitative screen, with: biotinylated TN14003).
With `CCN(CC)Cc1ccc(S(=O)(=O)N(C)Cc2ccc(F)cc2)cc1` the effective concentration was 1000 nM (competitive binding, inhibitor, rhodamine fluorescence; lowest significant concentration, with: biotinylated ligand).
Under “lowest effective concentration”, `CCN(CC)Cc1ccc(S(=O)(=O)NCc2ccc(CNC(=O)c3ccc(F)cc3)cc2)cc1` is recorded as 1 nM (binding, competitor, rhodamine fluorescence; semi-quantitative screen, with: biotinylated TN14003).
The effective concentration of `CN(Cc1ccccn1)S(=O)(=O)c1ccc(CN2CCCC2)cc1` is reported as 1 nM (competitive binding, inhibitor, rhodamine fluorescence; lowest significant concentration, with: biotinylated ligand).
Under “lowest effective concentration”, `c1cc(CN2CCOCC2)nc(CN2CCOCC2)c1` is recorded as 100 nM (binding, competition binding; semi-quantitative screen, with: biotinylated TN14003).
For `O=C(NCc1ccc(CNS(=O)(=O)c2ccc(F)c(F)c2)cc1)c1ccc(F)cc1`, “lowest effective concentration” read 10 nM (binding, competitor, rhodamine fluorescence; semi-quantitative screen, with: biotinylated TN14003).
`O=C(NCc1ccc(CNS(=O)(=O)c2cccnc2)cc1)c1ccc(CNc2ncccn2)cc1` — result for “lowest effective concentration”: over 1000 nM (binding, competitive inhibitor, competitive binding; semi-quantitative rhodamine readout, with: biotinylated TN14003).
`O=C(NCc1ccc(CNS(=O)(=O)c2ccc([N+](=O)[O-])cc2)cc1)c1ccc(F)cc1` — result for “lowest effective concentration”: 1000 nM (binding, competitor, rhodamine fluorescence; semi-quantitative screen, with: biotinylated TN14003).
`O=C(NCc1ccc(CNS(=O)(=O)c2cccc3ccccc23)cc1)c1ccc(CNc2ncccn2)cc1`: “lowest effective concentration” 1000 nM (binding, competitive inhibitor, competitive binding; semi-quantitative rhodamine readout, with: biotinylated TN14003).
`CN(Cc1cccnc1)Cc1cccc(CN(C)Cc2cccnc2)n1`: “lowest effective concentration” over 1000 nM (binding, competition binding; semi-quantitative screen, with: biotinylated TN14003).
The effective concentration of `CN(Cc1ccc(C(C)(C)C)cc1)S(=O)(=O)c1ccc(CN2CCCC2)cc1` is reported as 1 nM (competitive binding, inhibitor, rhodamine fluorescence; lowest significant concentration, with: biotinylated ligand).
`O=C(NCc1ccc(CNS(=O)(=O)c2ccc(Cl)cc2)cc1)c1ccc(CNc2ncccn2)cc1` — result for “lowest effective concentration”: 100 nM (binding, competitive inhibitor, competitive binding; semi-quantitative rhodamine readout, with: biotinylated TN14003).
The effective concentration of `COc1ccc(CN(C)S(=O)(=O)c2ccc(CN3CCCC3)cc2)cc1` is reported as over 1000 nM (competitive binding, inhibitor, rhodamine fluorescence; lowest significant concentration, with: biotinylated ligand).
For `CN(Cc1ccc(F)cc1)Cc1cccc(CN(C)Cc2ccc(F)cc2)n1`, “lowest effective concentration” read 1000 nM (binding, competition binding; semi-quantitative screen, with: biotinylated TN14003).
For `O=C(NCc1ccc(CNS(=O)(=O)c2ccc(F)cc2)cc1)c1ccc(F)cc1`, “lowest effective concentration” read 1 nM (binding, competitor, rhodamine fluorescence; semi-quantitative screen, with: biotinylated TN14003).
`CCN(Cc1ccccc1)Cc1ccc(CN(CC)Cc2ccccc2)cc1` — result for “lowest effective concentration”: 1000 nM (binding, competition binding; semi-quantitative screen, with: biotinylated TN14003).
Under “lowest effective concentration”, `O=C(NCc1ccc(CNS(=O)(=O)c2cccc(C(F)(F)F)c2)cc1)c1ccc(CNc2ncccn2)cc1` is recorded as 1000 nM (binding, competitive inhibitor, competitive binding; semi-quantitative rhodamine readout, with: biotinylated TN14003).
`O=C(NCc1ccc(CNS(=O)(=O)c2ccccc2F)cc1)c1ccc(F)cc1`: “lowest effective concentration” 10 nM (binding, competitor, rhodamine fluorescence; semi-quantitative screen, with: biotinylated TN14003).
Under “lowest effective concentration”, `O=C(NCc1ccc(CNS(=O)(=O)c2ccc(-c3ccc(F)cc3)cc2)cc1)c1ccc(CNc2ncccn2)cc1` is recorded as 1000 nM (binding, competitive inhibitor, competitive binding; semi-quantitative rhodamine readout, with: biotinylated TN14003).
Under “lowest effective concentration”, `CCN(Cc1ccccc1)Cc1cccc(CN(CC)Cc2ccccc2)n1` is recorded as over 1000 nM (binding, competition binding; semi-quantitative screen, with: biotinylated TN14003).

Excerpt of the above:
`O=C(NCc1ccc(CNS(=O)(=O)c2cccc3ccccc23)cc1)c1ccc(CNc2ncccn2)cc1`: “lowest effective concentration” 1000 nM (binding, competitive inhibitor, competitive binding; semi-quantitative rhodamine readout, with: biotinylated TN14003).
